# Experimental data gathered from unrelated publications.
# Parts stem from different laboratories: compare values within a part only.

# Set 1
# Target: PABPC1L2, full length, GST fusion (mouse, UniProt A0ABA7IW68)
# Method: RNAcompete
# Form: RNA
# Medium: in vitro
# Tested at: 20 nM
# Setting: 7-mer, probes averaged, single round
# Relative to: mean of 7-mers
# Direction: higher = stronger binding
# Construct (chain): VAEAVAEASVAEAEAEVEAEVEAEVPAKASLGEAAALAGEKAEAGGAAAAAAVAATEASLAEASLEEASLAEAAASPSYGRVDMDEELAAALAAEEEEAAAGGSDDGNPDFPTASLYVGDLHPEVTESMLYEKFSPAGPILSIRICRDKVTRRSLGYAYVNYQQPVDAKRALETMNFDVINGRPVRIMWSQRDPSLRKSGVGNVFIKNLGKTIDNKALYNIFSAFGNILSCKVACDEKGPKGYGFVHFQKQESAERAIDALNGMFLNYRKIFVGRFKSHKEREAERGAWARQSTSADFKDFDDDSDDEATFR
Sequence,7-mer Z-score
GCCCAGG,-0.193
CAGGUUA,-0.133
GCCUCUU,-0.445
CCGAAAU,0.0334
CCCCUCG,-0.458
ACUUCUG,-0.248
GUUGGAA,0.254
AUUGCUU,-0.275
GUAAGUG,-0.11
AGAAUUA,-0.132
AUCUGAC,-0.182
UCCGUGC,-0.146
UGUGAAU,-0.171
AUGUCUC,-0.309
GCUGGUU,-0.202
CCGCGUU,-0.4
GAAUCUU,-0.298
GUCCCCA,-0.45
UCUAGAG,-0.24
CGGGGCA,0.43
UGCUGCC,-0.122
UGCACUU,-0.148
GGUAACG,-0.126
GAUUUCC,-0.342
GUGGCUA,0.046

# Set 2
# Target: Histone acetyltransferase KAT6A, winged helix 2, GST fusion (KAT6A, Homo sapiens, UniProt Q92794, residues 85-181)
# Method: protein binding microarray
# Form: double-stranded DNA, one strand shown
# Medium: in vitro
# Tested at: not given
# Setting: 8-mer, flanks averaged, mean of 2 arrays, mostly near background
# Relative to: not given
# Direction: higher = stronger binding
# Target sequence (chain): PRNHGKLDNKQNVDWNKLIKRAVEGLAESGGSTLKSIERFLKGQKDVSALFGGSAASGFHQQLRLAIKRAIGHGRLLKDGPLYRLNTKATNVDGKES
Sequence,E-score
CTCCGGTA,-0.157
ACTGACAG,-0.0656
GGAGCGTA,0.123
AATCTGGT,0.0783
AGTGTGAA,-0.0685
CTATGGAA,-0.0678
GCGTACAC,-0.0548
AGCGGGAC,0.265
TAGCATCA,0.0879
ATCGCCTA,-0.0575
ACACCCTA,-0.185
AATTAAAG,0.0929
ATTTTACA,-0.151
ACTGCGCT,-0.0121
AACCTGCT,0.125
GCGCTCGA,0.00185
GGGTGGCA,0.135
AGTGCTGG,0.0245
ATCTTACC,-0.0923
AACGTACA,-0.157

# Set 3
# Target: Sal-like protein 4, full length isoform B (SALL4, Homo sapiens, UniProt Q9UJQ4-2, residues 1-616)
# Method: universal PBM
# Form: double-stranded DNA, one strand shown
# Medium: in vitro
# Tested at: not given
# Setting: 8-mer, flanks averaged, mean of replicates
# Direction: higher = stronger binding
Sequence,E-score
CTTGCTCA,-0.198
ACTTAGAC,0.0846
TACATTCA,0.298
ACTGGCTC,-0.229
ATGTGTTC,-0.00054
AAAATCCC,0.0877
CTAACCAA,0.0605
CTACTTCC,-0.0742
CCTATTTA,0.197
CGTCAAAC,0.0139
AATAAAAA,0.369
ATGGGCAG,-0.143
ATACCCAA,0.0616
GGGAGAAC,-0.304
AATCTGTA,0.204
TATGCGCA,0.0239
ACTGTCGA,-0.00455
TAAGGCAA,0.0676
CGTTGCTC,-0.201
GACTGGTA,-0.178
CGGGAACC,-0.34
CCCGTGTC,-0.346
AAGCTCGG,-0.157
ATTCAAGC,0.131
ATTCACTA,0.119

# Set 4
# Target: RNA binding protein fox-1 homolog 2, RRM domain, GST-SBP tag (RBFOX2, Homo sapiens, UniProt O43251-10, residues 100-194)
# Method: RNA Bind-n-Seq
# Form: RNA
# Medium: in vitro
# Tested at: 365 nM
# Setting: natural RNA segment, single round, ends assumed
# Relative to: no-protein control
# Direction: higher = stronger binding
# Shared flanks, not repeated: GGGAGUUCUACAGUCCGACGAUC … UGGAAUUCUCGGGUGCCAA
# Construct (chain): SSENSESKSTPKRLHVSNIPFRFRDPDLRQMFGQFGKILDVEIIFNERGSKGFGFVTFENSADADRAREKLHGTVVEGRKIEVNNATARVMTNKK
Sequence,RBNS enrichment (R)
AGAAAGUCGGCUGUUGAUACGAUUGUCUGUUAUCGAACACAUUCAGUGAUAAAGCUGGGUUACUGCUGCUUUUGGUGCUCUCACCUUAUCUGGAAGAUCUGCAAACAUUA,0.632
CUGAAGCUGAUGGGCUGCGAACAUGGACUGAGCUUGUGGUGUGCUUUGCAGGAGAACUUGGAAGCAGAGUUCACCAGUGAGCUCAGGUGUCUCAAAGAAGGGUGGAAGUU,1.04
AUCAUCAGAACCCUAAGAGUAGAUGGUUGCCCUGCAUCUUGGGCUCCAUCGGCCGAAACUUUCCCAAGCCAGGGUGUGCGGAGCUUCCCUGUACUGCAGCCAAGGUGACG,0.679
AGACCUGGCUUUCAUGCUUCCUUAGACACGGCCUCCCUCGACUUACUUGCCUUGAAGAAGAAAGGCGCUGACACGCUUAACGCAAACAGAAGGUCCACAAAUAGCAGUUC,0.685
CAGCUUGCAGUGUGUAUAGCAUAUAGAUGCCAAUAUUAGAAUUCUUUAAAUUAUAUUUAACAUUUUCAUGCUUCUUAAUUUAACUUCACAUGUUGGGAAGUAGAUUCAGA,0.632
AAUUGGGCUUAAAAAUUGACAUGCAAUCUCUUAAGUUUUUUGUUCAGCUACUUCACACUGAGUACCUCAAAUCUGCUCUGGAGUCGAUUAUGCCACCUGUGUGUCAGGAU,0.406
CAAGGGAAUAACUAGGCUGGUUAAAAGAGUCAGGGCUACUGGAGCCAAGGUGGGGACCUUUGAGGCUAGGUGGGGGUCACCUGCUGCUUCUGAGCUUGGAUUAGAGAAAG,1.07
ACACCAGAGUCUGUACUUUUCUAUAACACAGCUCAGAUUAAGGUAGGGCAUAUGCCAAGGAGGUUCUCACCUCCCUAAAGAAGGGACUUGAAUUUUAGGGACUUUAAUUC,0.205
AAAUAGAAAGCUAUUUUGAUCUUUAGUGCAAACUAGGGACGUAGCCUCCAUCACCACAACCACACCGCUUCGCUCUGCCAUCCACCCACCGCAGCAGCAUCUUCAAGAAU,0.755
ACCUCAGGAUUCGAAGUGUGCAACAGACGGAGUGCGCUUGCUGUUCAGGGCGGCCCCGUGCAGGAGCACCAGCUCACCCUCAGGCAUCUCGGACUGGAGGGCCAGCAGAA,0.622
GAGCUGAGAGCCAGAAAUGUGGCUGUGAUUGCGAAAGAGACGGAGUUUGGGAGACCCAUGGAAGAAAACCUUCGCCAUCUCCAUUGUUUUACCCCCAGCUCAAGAUGGAC,0.515
UCACUGCAGUGUUACCGGAGCUUCCUUCAUUGUGCGCACACGACAAAUCUGAGUUCUUUGGGAAAAAAAUAGAAAUGAAGCAGCCUCCCUUCAUAAUGUGAGCAAUAGUU,0.901

# Repeated from above (set 3):
Sequence,E-score
GACTGGTA,-0.178
TACATTCA,0.298
ATTCAAGC,0.131
ACTGGCTC,-0.229
ATGTGTTC,-0.00054
CGGGAACC,-0.34
CTAACCAA,0.0605
TATGCGCA,0.0239
AAAATCCC,0.0877
CGTCAAAC,0.0139
AATCTGTA,0.204
CTACTTCC,-0.0742
CCTATTTA,0.197
ATACCCAA,0.0616
